Assay results collected from several papers.
A part holds a random share of what one study measured. Positions count from the first letter of the parent shown.

Study 1 — method: universal PBM; molecule type: double-stranded DNA, one strand shown; matrix: in vitro; concentration: 600 nM; reading: higher = stronger binding
Target: Sal-like protein 4, full length isoform A (SALL4, Homo sapiens, UniProt Q9UJQ4, residues 1-1053)
Chain of UniProt Q9UJQ4 (whole entry, looked up): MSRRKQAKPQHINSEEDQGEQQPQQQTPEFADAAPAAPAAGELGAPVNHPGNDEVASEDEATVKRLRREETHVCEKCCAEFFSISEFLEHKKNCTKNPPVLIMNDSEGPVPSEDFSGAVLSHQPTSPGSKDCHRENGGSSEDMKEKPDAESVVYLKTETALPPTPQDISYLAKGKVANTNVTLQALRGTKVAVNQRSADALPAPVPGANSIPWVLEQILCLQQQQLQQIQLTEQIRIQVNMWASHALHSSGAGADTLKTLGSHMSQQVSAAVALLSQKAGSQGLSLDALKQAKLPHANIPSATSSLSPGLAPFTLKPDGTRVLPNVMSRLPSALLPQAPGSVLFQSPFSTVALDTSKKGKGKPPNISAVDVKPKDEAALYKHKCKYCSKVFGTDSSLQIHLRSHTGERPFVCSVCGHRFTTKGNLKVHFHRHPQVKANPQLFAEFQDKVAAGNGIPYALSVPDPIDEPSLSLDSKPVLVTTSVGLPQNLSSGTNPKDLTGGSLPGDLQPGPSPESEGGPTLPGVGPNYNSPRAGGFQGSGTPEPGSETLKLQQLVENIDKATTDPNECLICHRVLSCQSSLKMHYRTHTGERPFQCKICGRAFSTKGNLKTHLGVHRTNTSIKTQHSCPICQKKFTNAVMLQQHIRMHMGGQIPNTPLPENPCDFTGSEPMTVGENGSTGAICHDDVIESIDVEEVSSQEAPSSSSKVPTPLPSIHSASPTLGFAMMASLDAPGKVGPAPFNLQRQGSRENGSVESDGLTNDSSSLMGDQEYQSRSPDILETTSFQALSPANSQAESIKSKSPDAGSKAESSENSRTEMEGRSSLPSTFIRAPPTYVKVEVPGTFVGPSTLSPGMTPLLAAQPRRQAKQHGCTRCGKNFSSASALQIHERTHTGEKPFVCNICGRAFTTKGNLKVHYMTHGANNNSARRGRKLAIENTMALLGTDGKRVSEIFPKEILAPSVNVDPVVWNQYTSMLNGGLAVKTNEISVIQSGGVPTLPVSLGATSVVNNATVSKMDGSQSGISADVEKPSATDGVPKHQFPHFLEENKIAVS
Notes: 8-mer, flanks averaged, mean of replicates
`GGAGTCCC` gave an E-score of -0.407.
`CTGCTCCA` has an E-score of -0.0931.
`CTTGTTGA` gave an E-score of 0.0663.
`AGTTCTAT` has an E-score of 0.0903.
With `ATTGGACC` the E-score was -0.121.
`GGGGTATA` has an E-score of 0.0229.
With `AGAGCGCC` the E-score was -0.29.
`TCGCAAAA` has an E-score of 0.147.
`ACCTGTCG` gave an E-score of -0.0946.
`AAGTCCGA` has an E-score of -0.00563.
`GAGACCCC` has an E-score of -0.226.
For `ACCGAAGC`, the E-score was -0.231.
`CAATCGCG` gave an E-score of -0.154.
The E-score of `GCGGGTAA` is reported as -0.254.
`AAGTTAAC` has an E-score of 0.166.
`ACGGCCGA` gave an E-score of -0.182.
`GAATCGCC` has an E-score of -0.233.
`AATAGTAC` gave an E-score of 0.147.
With `CTACCTGA` the E-score was -0.0789.
With `ACCGGCGT` the E-score was -0.329.
With `GGGGGTGA` the E-score was -0.168.
The E-score of `CTGTTGTA` is reported as 0.0954.
`ATATCAAC` has an E-score of 0.256.
`CGCCGCAG` gave an E-score of -0.309.
`CGCAGTGA` gave an E-score of -0.0669.

Study 2 — target: CCNB3, cyclin fold, Cln2 fusion (human); method: yeast growth competition, sequencing; matrix: yeast; notes: weak parent motif; reference: not given; reading: higher = stronger binding
Parent: CDKN1A docking peptide (human); SKACRRLFGPVDS
Under “normalised enrichment score”, `D12N` is recorded as 0.767.
Under “normalised enrichment score”, `R6K` is recorded as 0.63.
`C4S`: “normalised enrichment score” 0.347.
`L7T` — result for “normalised enrichment score”: 0.284.
`G9S` — result for “normalised enrichment score”: 0.516.
`L7R` — result for “normalised enrichment score”: 0.184.
For `P10K`, “normalised enrichment score” read 0.682.
`R6T`: “normalised enrichment score” 1.03.
`L7V` — result for “normalised enrichment score”: 0.602.
Under “normalised enrichment score”, `R6P` is recorded as -0.178.
Under “normalised enrichment score”, `G9V` is recorded as 0.457.
`V11T` — result for “normalised enrichment score”: 0.824.
Under “normalised enrichment score”, `K2H` is recorded as 0.578.
For `P10A`, “normalised enrichment score” read 0.345.
For `D12M`, “normalised enrichment score” read 0.566.
`R5N`: “normalised enrichment score” 0.11.
`R5Y`: “normalised enrichment score” 0.156.
`A3N`: “normalised enrichment score” -0.272.
`A3M` — result for “normalised enrichment score”: 0.547.
Under “normalised enrichment score”, `L7S` is recorded as -0.0527.
`P10R`: “normalised enrichment score” 0.639.
`F8T` — result for “normalised enrichment score”: -0.461.
`C4L` — result for “normalised enrichment score”: 0.215.

Study 3 — target: FOS, bZIP domain (human); method: DHFR protein complementation; matrix: yeast; reference: wild-type JUN-FOS pair; reading: higher = stronger binding
Notes: single substitutions, most at no-binding floor
Parent: JUN, bZIP domain (human); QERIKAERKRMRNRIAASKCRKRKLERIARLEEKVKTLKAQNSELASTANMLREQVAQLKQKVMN; partner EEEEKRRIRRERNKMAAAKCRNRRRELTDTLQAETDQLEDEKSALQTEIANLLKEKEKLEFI
With `K36Q` the binding fitness was -0.0566 natural log.
The binding fitness of `K39A` is reported as -0.649 natural log.
The binding fitness of `V35Y` is reported as -0.347 natural log.
With `E54D` the binding fitness was -0.223 natural log.
The binding fitness of `R53V` is reported as -1.03 natural log.
`L52I` has a binding fitness of -0.297 natural log.
For `I28M`, the binding fitness was -0.0903 natural log.
With `Q55Y` the binding fitness was -0.207 natural log.
The binding fitness of `L52R` is reported as -1.19 natural log.
`A49C` has a binding fitness of -0.174 natural log.
With `L38E` the binding fitness was -1.12 natural log.
`S47Q` has a binding fitness of 0.0533 natural log.
With `K34T` the binding fitness was -0.0803 natural log.
For `A57C`, the binding fitness was -0.281 natural log.
With `E33I` the binding fitness was -0.36 natural log.
`L31T` gave a binding fitness of -0.754 natural log.
`T37A` gave a binding fitness of 0.048 natural log.
The binding fitness of `S47G` is reported as -0.0628 natural log.
`V56M` gave a binding fitness of -0.965 natural log.
`A29V` has a binding fitness of -0.347 natural log.
`Q58V` has a binding fitness of -0.0774 natural log.

Study 4 — method: RNA Bind-n-Seq; molecule type: RNA; matrix: in vitro; concentration: 1 µM; notes: whole 134-nt RNA, ends assumed; added: 150 mM KCl; reference: input library; reading: higher = stronger binding
Target: Ras GTPase-activating protein-binding protein 1, C-terminal RGG region (G3BP1, Homo sapiens, UniProt Q13283)
Chain of UniProt Q13283 (whole entry, looked up): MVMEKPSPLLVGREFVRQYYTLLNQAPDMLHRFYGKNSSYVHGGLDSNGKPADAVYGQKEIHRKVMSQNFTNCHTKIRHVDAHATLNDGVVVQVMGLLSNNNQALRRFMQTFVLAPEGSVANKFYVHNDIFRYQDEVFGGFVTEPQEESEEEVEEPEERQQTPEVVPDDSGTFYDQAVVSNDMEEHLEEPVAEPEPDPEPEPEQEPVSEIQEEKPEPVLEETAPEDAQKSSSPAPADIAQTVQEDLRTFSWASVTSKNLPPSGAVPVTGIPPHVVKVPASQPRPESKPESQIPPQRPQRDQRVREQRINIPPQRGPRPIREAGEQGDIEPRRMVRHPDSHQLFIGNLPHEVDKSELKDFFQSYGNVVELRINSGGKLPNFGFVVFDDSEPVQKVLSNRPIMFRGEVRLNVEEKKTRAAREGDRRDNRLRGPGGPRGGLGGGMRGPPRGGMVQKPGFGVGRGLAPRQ
The log2 enrichment of `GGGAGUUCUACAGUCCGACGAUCUCCUCAAGUCCUGUGCUACACAUCGUAUGUACCGAAUCGGAGGGAGGAGGGGAAAGUAUUAUGUUACGCCGUUCGGAUCUGCACUUCCAGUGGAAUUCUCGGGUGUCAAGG` is reported as -0.245.
With `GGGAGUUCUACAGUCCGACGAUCCCUGUGCUACACAUCGUAUGUACCGAAUCGGGCCCCCCCGGGCCCCCCCGGCCCCCCCGGAAAGUAUUAUGUUACGCCGUUCGGAUCUGCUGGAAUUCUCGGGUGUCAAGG` the log2 enrichment was -1.4.
`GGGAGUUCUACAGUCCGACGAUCCACAGACAACACGCACCCACAAAGACACAGAGGGAAGGGGUUGGGAUGGGGACAGGGUGCACAGCAGGGCGGGGUAGGACCCCAGCCCCUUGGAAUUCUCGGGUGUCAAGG` has a log2 enrichment of -0.227.
`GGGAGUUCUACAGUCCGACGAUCUGGGCAUUUUGGUGGAGACGAUGAGCACCAACGACACGAUCGUCAGUGGCACGCUGCCCCAGCGCAUGGCGUCCUGCCUGGAGGUGCUGGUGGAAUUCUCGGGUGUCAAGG` has a log2 enrichment of -1.38.
With `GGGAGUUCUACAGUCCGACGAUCGUCCUGUGCUACACAUCGUAUGUACCGAAUCGGUUUUUUGGUUUUUUGGGUUUUUUGGAAAGUAUUAUGUUACGCCGUUCGGAUCUGCACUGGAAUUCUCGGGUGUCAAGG` the log2 enrichment was -1.25.
The log2 enrichment of `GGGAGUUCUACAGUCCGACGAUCAGUCCUGUGCUACACAUCGUAUGUACCGAAUCGGGUUUUUUUGGGUGGGUUUUUGGGAAAGUAUUAUGUUACGCCGUUCGGAUCUGCACUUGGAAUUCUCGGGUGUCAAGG` is reported as 1.16.
For `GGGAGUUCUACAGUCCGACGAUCUCCUGUGCUACACAUCGUAUGUACCGAAUCGGGGAAAAAGGGGAAAAAGGGGUUUGGGGAAAGUAUUAUGUUACGCCGUUCGGAUCUGCAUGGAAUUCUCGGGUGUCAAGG`, the log2 enrichment was 2.09.
The log2 enrichment of `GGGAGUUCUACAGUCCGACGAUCGUCCUGUGCUACACAUCGUAUGUACCGAAUCGGUUUUUUGGGGUUUUUUGGUUUUUUGGAAAGUAUUAUGUUACGCCGUUCGGAUCUGCAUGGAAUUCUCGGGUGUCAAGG` is reported as -1.39.
The log2 enrichment of `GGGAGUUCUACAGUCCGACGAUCUGCAGCUCUCCGGCUGGGAUCCUGGUUGACGCCAUGUCCCAGAAGCACCUUCAGAUCAACCAGACAUUUGAGGAGCUGCGACUGGUCACGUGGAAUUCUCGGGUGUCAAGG` is reported as -1.65.

Study 5 — method: RNA Bind-n-Seq; molecule type: RNA; matrix: in vitro; concentration: 365 nM; reference: no-protein control; reading: higher = stronger binding
Target: RNA binding protein fox-1 homolog 2, RRM domain, GST-SBP tag (RBFOX2, Homo sapiens, UniProt O43251-10, residues 100-194)
Notes: natural RNA segment, single round, ends assumed
Construct (chain): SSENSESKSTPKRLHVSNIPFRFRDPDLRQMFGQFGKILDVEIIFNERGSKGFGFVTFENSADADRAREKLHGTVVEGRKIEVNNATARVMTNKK
Under “RBNS enrichment (R)”, `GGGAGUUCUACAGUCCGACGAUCGGAAGCUUGGGUUCAAGCGUCACUCAUCUGUACAUAGUUGUAACUCCCAUGUGGAGUAUCAGUCGCUCACAGGACUUGGAUCUGAAGCACAGUAAACGCAAGAGGGGAUUUGGAAUUCUCGGGUGCCAA` is recorded as 0.505.
For `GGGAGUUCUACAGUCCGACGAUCUUUUAAUUCAAUCAUACACACAUAAUCCUUUGUAAUCAUUUUUCUUUUAAGUGAGGAUAUCUACUGUCUGCUUCAUAGGGUGCUUUGCAAUAAAAUGAAAACGUAUUUAUUGGAAUUCUCGGGUGCCAA`, “RBNS enrichment (R)” read 0.421.
Under “RBNS enrichment (R)”, `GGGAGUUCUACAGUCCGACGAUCGAAAUUGCCAGUGUGUACUUGGCUUAACUCAAGAACAGUUUCUUCUGGAUUCCUUAUUUGAUUUAUUUAACCUAAUUAUAUUCUAAUAUUGCAAAUAUUACCAUAAGUGGUGGAAUUCUCGGGUGCCAA` is recorded as 0.582.
`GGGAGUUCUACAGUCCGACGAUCGAUAUAAAAUAGGCUUAGAGAGGAAAAGCUGCCUCUGGUCAAGUAGAUCAUGGCAGCAUGAAUUCCAACUCACUUUUUUACAACUCCAACUUCUAUGUUUAUCUUUGUUAUGGAAUUCUCGGGUGCCAA` — result for “RBNS enrichment (R)”: 0.551.
`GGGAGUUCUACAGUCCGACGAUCGGGGUGGUGCAGGCCGGUAGUCUGCCCGUCACUUUGGAUCAUAGCCCUGGGCCUGGCGGCACAGCAGCACUUGCGUUCUCGGGGCUGUCGAUUUCCUGCCACCUGGGCAGUGGAAUUCUCGGGUGCCAA` — result for “RBNS enrichment (R)”: 0.294.
`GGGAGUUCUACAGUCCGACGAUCGUUUGGGAUCCCUGAAGAGAGGGGCCCUAGGACAGCUCUUCCCUCGUCUUCACCCCGUCUCCACCCCACCUCUUCUGGCCCCCAGCCUCACUGUGGCUCUCUACAGUACCUGGAAUUCUCGGGUGCCAA` — result for “RBNS enrichment (R)”: 1.2.
Under “RBNS enrichment (R)”, `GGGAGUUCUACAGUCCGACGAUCAGUGGCUCUGACCCCCAACCUACUCUGGGCACCUUCCUACCCCCAUCUCUCCAGCAACAAUAACCUAAGAUGUCUAUAGACAUUAGACCAUGUCUCCAUAAGACAGGCCCUGGAAUUCUCGGGUGCCAA` is recorded as 0.665.
`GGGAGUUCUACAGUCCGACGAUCUUUUUUUUUUCUUUUUGUCCAGACUUAAAUUGUUUUGUCUUCAGAGUUUUGGAGGACCCCGGUCCCCACAAUGCCAGGCUGCAGGAUAACUGCCAUCCCCUUCUGUGAGUUGGAAUUCUCGGGUGCCAA` — result for “RBNS enrichment (R)”: 0.462.

Further values, each from its own experiment
For `PhoQ, residues 284 288 289 292 302 303 HSYLQF`, the fold induction was 12.7 (PhoP, residues 12 14 15 18 19 AQALL (Escherichia coli, UniProt P23836); Sort-seq, refers to: YFP reporter; E. coli; PhoQ-PhoP variant library, added: 10 µM Mg2+; reference: high Mg2+ state, higher = stronger signaling).

A few entries again (study 3):
`S47Q` has a binding fitness of 0.0533 natural log.
With `E33I` the binding fitness was -0.36 natural log.
For `A57C`, the binding fitness was -0.281 natural log.
With `L38E` the binding fitness was -1.12 natural log.
With `Q55Y` the binding fitness was -0.207 natural log.
The binding fitness of `K39A` is reported as -0.649 natural log.
The binding fitness of `L52R` is reported as -1.19 natural log.
`L31T` gave a binding fitness of -0.754 natural log.
The binding fitness of `V35Y` is reported as -0.347 natural log.
The binding fitness of `S47G` is reported as -0.0628 natural log.
For `I28M`, the binding fitness was -0.0903 natural log.
